Measurements collected from several papers.
Protocols differ between the studies behind these lines. “And” joins repeats or separate records; there may be more than shown. Numbers after ± are the reported error.
CASP9: Caspase-9 (CASP9, Homo sapiens, UniProt P55211)
CASP4: Caspase-4 (CASP4, Homo sapiens, UniProt P49662)
USP5: Ubiquitin carboxyl-terminal hydrolase 5 (USP5, Homo sapiens, UniProt P45974)

`CC(=O)N[C@@H](CCC(N)=O)C(=O)N[C@@H](CC(C)C)C(=O)N[C@@H](CCCC(=O)O)C(=O)N1CCC[C@H]1C(=O)N[C@@H](CC(=O)O)C(=O)COC(=O)c1c(C)cccc1C` gave a kinact/KI of 117000 M⁻¹ s⁻¹ (CASP9; enzyme activity, inhibitor).
`CC(=O)N[C@@H](CCCNC(=N)N)C(=O)N[C@H](C(=O)N[C@@H](CCCCN)C(=O)N[C@@H](CO)C(=O)N[C@@H](CCCNC(=N)N)C(=O)N[C@H](C(=O)N[C@@H](Cc1c[nH]c2ccccc12)C(=O)N[C@@H](C)C(=O)N[C@@H](C)C(N)=O)[C@@H](C)OP(=O)(O)O)[C@@H](C)O` gave a koff of 0.084 s⁻¹ (14-3-3 protein epsilon (Homo sapiens, UniProt P62258); binding, SPR).
`CC[C@H](NC(=O)[C@H](CC(C)C)NC(C)=O)C(=O)N[C@@H](CCC1CCCCC1)C(=O)N[C@@H](CC(=O)O)C(=O)COC(=O)c1c(C)cccc1C` has a kinact/KI of 183000 M⁻¹ s⁻¹ (CASP9; enzyme activity, inhibitor).
For `O=C1N/C(=N\c2ccc(F)cc2C(=O)O)S/C1=C\c1cccc2ccccc12`, the reaction rate was -32.9 a.u. (Dihydroorotate dehydrogenase (quinone), mitochondrial (DHODH, Homo sapiens, UniProt Q02127); enzyme activity, inhibitor, DCIP reduction; 0.01 µM; higher = more activity).
The kinact/KI of `CC(=O)N1[C@H](C(=O)N[C@@H](CC(C)C)C(=O)N[C@@H](C)C(=O)N[C@@H](CC(=O)O)C(=O)COC(=O)c2c(C)cccc2C)C[C@@H]2CCCC[C@@H]21` is reported as 1300 M⁻¹ s⁻¹ (CASP4; enzyme activity, inhibitor).
With `CCc1ccc(NS(=O)(=O)c2c(C)[nH]c(C)c2C(=O)N2CCCC2)cc1` the Imax was 99 ± 3% (D(3) dopamine receptor (DRD3, Homo sapiens, UniProt P35462); β-arrestin recruitment, agonist, PathHunter; relative to: dopamine).
`COc1ccc(C2(C(=O)N3CCC(Nc4nc5ccccc5c(=O)[nH]4)CC3)CC2)cc1` has a Hill slope of 0.94 (MRGPRD (Homo sapiens, UniProt Q8TDS7); miniGq recruitment, agonist, BRET1; HEK293T).
`Fc1ccc(Nc2nc(NC3CCCCC3)c3cc(C(F)(F)F)ccc3n2)cc1F` gave a maximal inhibition of 8.6% (Beta-2 adrenergic receptor (ADRB2, Homo sapiens, UniProt P07550, G162A); β-arrestin2 recruitment, antagonist, BRET; mutant G162A; relative to: isoprenaline maximal response).
For `C=CC(=O)N1CCCC(n2c(=O)c3ncccc3n(Cc3ccc(Oc4ccccc4)cc3)c2=O)C1` (stereo not shown), “melting temperature shift” read -6.23 (MYG1 exonuclease (MYG1, Homo sapiens, UniProt Q9HB07); thermal proteome profiling, item: C12orf10; 10 µM, destabilized proteins, unit not given; relative to: vehicle).
The specific binding of `O=C1c2sc(-c3ccc(N4CCC(CO)CC4)nc3F)nc2CCN1c1cccnc1` is reported as 3.57 nM and 2.3 nM (TAR DNA-binding protein 43, aggregated (TARDBP, Homo sapiens, UniProt Q13148); radioligand binding; human, FTLD-TDP type B extract; with: radioligand 6.91 nM).
Under “plasma membrane localization”, `CC(C=CC=C(C)C=CC1=C(C)CCCC1(C)C)=CC=O` is recorded as 0.05 (Rhodopsin (RHO, Homo sapiens, UniProt P08100, P23H); immunostaining, item: opsin; COS-7 transfected; 1.00 µM, unit not given; relative to: surface over total stained cells).
With `CC(=O)N[C@@H](CO)C(=O)N[C@H](C(=O)N[C@@H](CCC(=O)O)C(=O)N[C@H](C(=O)N[C@@H](CC(=O)O)C(=O)COC(=O)c1c(C)cccc1C)C(C)C)C(C)(C)C` the kinact/KI was 55100 M⁻¹ s⁻¹ (CASP9; enzyme activity, inhibitor).
`CCN(CC)C(CO)c1cccc2c(C)c(C)oc12` (stereo not shown) has a fold change of 0.994 and 0.998 and 0.99 and 1 and 1.03 (Lysophosphatidic acid receptor 1 (LPAR1, Homo sapiens, UniProt Q92633, W271F); G-protein dissociation, agonist, NanoBiT; HEK-293T; 10 pM, W271F mutant; relative to: baseline luminescence).
`C#CCOC(=O)[C@]1(C)C=C(C(=O)OC(C)(C)C)C(=O)CC1`: “normalized kinase activity” 0.0254 and 0.0269 and 0.0226 (Mitogen-activated protein kinase 1 (MAPK1, Homo sapiens, UniProt P28482); enzyme activity, D-SENSOR; 400 µM, single replicate).
With `N#CN1CC[C@H](C(=O)Nc2nc3c(s2)CN(C(=O)Cn2cc(COCCOCCOCCOCCNC(=O)CCCC[C@@H]4SC[C@@H]5NC(=O)N[C@@H]54)nn2)CC3)C1` the iBAQ abundance was 2.81e+08 and 4.12e+08 and 2.2e+08 (Tubulin alpha-1B chain (Homo sapiens, UniProt P68363); probe binding, affinity probe, neutravidin pull-down LC-MS/MS; HEK293T, cell lysate; 5 µM, 1 h, single replicate, unit not given; higher = more pulled down).
`CCCC[C@H](NC(C)=O)C(=O)N[C@@H](CCC(=O)O)C(=O)N[C@H](C(=O)N[C@@H](CC(=O)O)C(=O)COC(=O)c1c(C)cccc1C)[C@@H](C)O` has a kinact/KI of 52600 M⁻¹ s⁻¹ (CASP4; enzyme activity, inhibitor).
Under “probe labeling increase”, `CCOC(=O)c1cccc(S(=O)(=O)n2nc(SCc3ccc(Cl)cc3)nc2N)c1` is recorded as 2.7 fold (Lysophospholipase-like protein 1 (Mus musculus, UniProt Q3UFF7); enzyme activity, activator, gel-based ABPP; purified protein; concentration not given, with: FP-rhodamine; relative to: DMSO).
The selectivity ratio of `CC(C)[C@H](NC(=O)[C@H](Cc1ccccc1)NC(=O)c1ccc(C(C)(C)C)cc1)C(=O)N[C@@H](CCCN)C(=O)N[C@@H](CCCCN(C)C1CC2CCC1C2)C(=O)N[C@@H](CO)C(N)=O` (stereo partly shown) is reported as 42 (Chromobox protein homolog 8 (Homo sapiens, UniProt Q9HC52); TR-FRET displacement; relative to: IC50 CBX7 over IC50 CBX8).
The IC50 of `Cc1nn(-c2cccc(N)c2)c(=O)c2cnc(Nc3ccc(N4CCNCC4)cc3)nc12` is reported as > 10 µM (Epidermal growth factor receptor (EGFR, Homo sapiens, UniProt P00533); enzyme activity, inhibitor).
Under “isoTOP-ABPP competition ratio”, `CCCCCC(O)/C=C/C=O` (stereo not shown) is recorded as 2.7 (WD repeat domain phosphoinositide-interacting protein 3 (WDR45B, Homo sapiens, UniProt Q5MNZ6); competitive isoTOP-ABPP, item: WDR45L cysteine peptide; proteome, soluble, MDA-MB-231; 100 µM, with: iodoacetamide probe; relative to: DMSO over compound-treated, higher = stronger cysteine blockade).
For `CC[C@H](C)[C@H](NC(=O)[C@H](Cc1ccccc1)NC(=O)[C@H](CCC(=O)O)NC(=O)[C@H](CCCCN)NC(=O)[C@H](C)NC(=O)[C@H](C)NC(=O)[C@H](CCC(N)=O)NC(=O)CNC(=O)[C@H](CCC(=O)O)NC(=O)[C@H](CC(C)C)NC(=O)[C@H](Cc1ccc(O)cc1)NC(=O)C[C@@H](NC(=O)[C@H](CO)NC(=O)C(C)(C)NC(=O)[C@H](CC(=O)O)NC(=O)[C@H](CO)NC(=O)[C@@H](NC(=O)[C@H](Cc1ccccc1)NC(=O)[C@@H](NC(=O)CNC(=O)[C@H](CCC(=O)O)NC(=O)[C@H](C)NC(=O)[C@@H](N)Cc1c[nH]cn1)[C@@H](C)O)[C@@H](C)O)C(C)C)C(=O)N[C@@H](C)C(=O)N[C@@H](Cc1c[nH]c2ccccc12)C(=O)N[C@@H](CC(C)C)C(=O)N[C@H](C(=O)N[C@@H](CCCCN)C(=O)NCC(=O)N[C@@H](CCCNC(=N)N)C(N)=O)C(C)C`, the efficacy was 102 ± 3% (Glucagon-like peptide 1 receptor (GLP1R, Homo sapiens, UniProt P43220); cAMP production, agonist, GloSensor luminescence; HEK293; 15 min; relative to: GLP-1).
With `Nc1ccc(N2CCOCC2)c(N)c1` the inhibition was 90% (USP5; enzyme activity, inhibitor; 17 µM).
`C=CC(=O)N1[C@H](c2ccc3c(c2)OCO3)c2[nH]c3ccccc3c2C[C@H]1C(=O)N1CCOCC1` — result for “increased binding sites”: 329 sites (Hepatocyte nuclear factor 3-alpha (FOXA1, Homo sapiens, UniProt P55317); ChIP-seq; 22Rv1; concentration not given, log2FC above 2).
`O=C1c2ccccc2C(=NS(=O)(=O)c2ccc(F)cc2)CC1Sc1nc[nH]n1` (stereo not shown) has an inhibition of 88% (USP5; enzyme activity, inhibitor; 17 µM).
With `CC(=O)N[C@@H](CC(C)C)C(=O)N[C@@H](CCC(=O)O)C(=O)N[C@H](C(=O)N[C@@H](CC(=O)O)C(=O)COC(=O)c1c(C)cccc1C)[C@@H](C)O` the kinact/KI was 37400 M⁻¹ s⁻¹ (CASP4; enzyme activity, inhibitor).
`[3H]C([3H])([3H])OC1(C2=NCCN2)COc2ccccc2O1` (stereo not shown) has a Bmax of 1.83 ± 0.12 pmol/mg protein (Alpha-2C adrenergic receptor (Mus musculus, UniProt Q01337, A13D); radioligand binding; HEK293 membranes; α2c(A13D)-AR mutant).
The kinact/KI of `CC(=O)N[C@H](C(=O)N[C@@H](CCCC(=O)O)C(=O)N[C@@H](CCC1CCCCC1)C(=O)N[C@@H](CC(=O)O)C(=O)COC(=O)c1c(C)cccc1C)C(C)(C)C` is reported as 86200 M⁻¹ s⁻¹ (CASP9; enzyme activity, inhibitor).
The hepatic clearance of `O=C(NC1CCOCC1)c1ccc([C@H]2[C@@H](F)[C@@H](F)C[C@@H](F)[C@H]2F)cc1` is reported as 21 mL/min/kg (hepatocyte stability; cryopreserved mouse hepatocytes; 1 µM).
For `N[C@H]1CC[C@H](Nc2nccc(-c3cccnc3Oc3ccc(NC(=O)NC4CC4)c4ccccc34)n2)CC1`, “log2 LFQ intensity” read 21.7 and 21.8 and 21.6 (Death domain-associated protein 6 (Homo sapiens, UniProt Q9UER7); kinobead competition pulldown; HEK293/HCT116 lysate mixture; 10 µM, 1 h, 4 °C; lower = stronger competition).
The cAMP accumulation of `CC[C@H](C)[C@@H]1NC(=O)[C@H](Cc2ccccc2)NC(=O)[C@H](CCC(=O)O)NC(=O)[C@H](CCCNC(=N)N)NC(=O)CNC(=O)[C@@H](NC(=O)[C@H](CC(C)C)NC(=O)[C@H](CCCNC(=N)N)NC(=O)[C@@H](NC(=O)CNC(=O)[C@H](Cc2ccc(O)cc2)NC(=O)[C@@H]2CCCN2C(=O)[C@H](C)NC(=O)[C@H](C)NC(=O)[C@@H](N)CCCNC(=N)N)C(C)C)CSSC[C@@H]2NC(=O)[C@@H](NC(=O)[C@H](CO)NC(=O)[C@H](CO)NC(=O)[C@H](CO)NC(=O)[C@H](CC(C)C)NC(=O)CNC(=O)[C@H](C)NC(=O)[C@H](CC(C)C)NC(=O)[C@@H](NC(=O)[C@@H](N)CC(=O)O)C(C)C)CSSC[C@H](NC(=O)CNC(=O)[C@H](Cc3c[nH]c4ccccc34)NC(=O)[C@H](CCCCN)NC2=O)C(=O)N[C@@H](CO)C(=O)N[C@@H](CCCCN)C(=O)N[C@@H](CO)C(=O)N[C@@H](CCC(=O)O)C(=O)N[C@@H]([C@@H](C)CC)C(=O)N[C@@H](CO)C(=O)N[C@@H](CO)C(=O)N[C@@H](CC(C)C)C(=O)N[C@H](C(=O)O)CSSC[C@@H](C(=O)NCC(=O)NCC(=O)N[C@@H](CO)C(=O)N[C@@H](CCCNC(=N)N)C(=O)N[C@@H](Cc2c[nH]c3ccccc23)C(=O)O)NC(=O)[C@H]([C@@H](C)O)NC(=O)[C@H](Cc2ccccc2)NC(=O)[C@H]([C@@H](C)CC)NC(=O)[C@H](C(C)C)NC(=O)[C@H](C)NC(=O)[C@H](CCCNC(=N)N)NC1=O` is reported as 34.4% and 33.1% and 30.8% (Relaxin-3 receptor 1 (RXFP3, Homo sapiens, UniProt Q9NSD7); agonist; 1.95 nM, wild-type receptor).
For `CC(=O)N[C@@H](CCCCN)C(=O)N[C@H](C(=O)N[C@@H](Cc1ccc(O)cc1)C(=O)N[C@@H](Cc1ccc(O)cc1)C(=O)N[C@@H](CCCNC(=N)N)C(=O)N[C@@H](Cc1ccc(O)cc1)C(=O)N[C@@H](CC(N)=O)C(=O)NCC(=O)N[C@@H](CCCCN)C(=O)N[C@H](C(=O)N[C@@H](Cc1c[nH]c2ccccc12)C(=O)N[C@@H](Cc1c[nH]c2ccccc12)C(=O)N[C@@H](CCCNC(=N)N)C(=O)O)C(C)C)C(C)C`, the β-strand content was 47% (Insulin (INS, Bos taurus, UniProt P01317); circular dichroism; 800 min, final stage after heating, with: INS 350 µM).

Excerpt of the above:
Under “isoTOP-ABPP competition ratio”, `CCCCCC(O)/C=C/C=O` (stereo not shown) is recorded as 2.7 (WD repeat domain phosphoinositide-interacting protein 3 (WDR45B, Homo sapiens, UniProt Q5MNZ6); competitive isoTOP-ABPP, item: WDR45L cysteine peptide; proteome, soluble, MDA-MB-231; 100 µM, with: iodoacetamide probe; relative to: DMSO over compound-treated, higher = stronger cysteine blockade).
For `CC(=O)N[C@@H](CCCCN)C(=O)N[C@H](C(=O)N[C@@H](Cc1ccc(O)cc1)C(=O)N[C@@H](Cc1ccc(O)cc1)C(=O)N[C@@H](CCCNC(=N)N)C(=O)N[C@@H](Cc1ccc(O)cc1)C(=O)N[C@@H](CC(N)=O)C(=O)NCC(=O)N[C@@H](CCCCN)C(=O)N[C@H](C(=O)N[C@@H](Cc1c[nH]c2ccccc12)C(=O)N[C@@H](Cc1c[nH]c2ccccc12)C(=O)N[C@@H](CCCNC(=N)N)C(=O)O)C(C)C)C(C)C`, the β-strand content was 47% (Insulin (INS, Bos taurus, UniProt P01317); circular dichroism; 800 min, final stage after heating, with: INS 350 µM).
`Fc1ccc(Nc2nc(NC3CCCCC3)c3cc(C(F)(F)F)ccc3n2)cc1F` gave a maximal inhibition of 8.6% (Beta-2 adrenergic receptor (ADRB2, Homo sapiens, UniProt P07550, G162A); β-arrestin2 recruitment, antagonist, BRET; mutant G162A; relative to: isoprenaline maximal response).
The kinact/KI of `CC(=O)N1[C@H](C(=O)N[C@@H](CC(C)C)C(=O)N[C@@H](C)C(=O)N[C@@H](CC(=O)O)C(=O)COC(=O)c2c(C)cccc2C)C[C@@H]2CCCC[C@@H]21` is reported as 1300 M⁻¹ s⁻¹ (CASP4; enzyme activity, inhibitor).
